Published values pooled from the literature.
A part holds a random share of what one study measured. Substitutions count along the parent as printed.

Study 1 — technique: RNA Bind-n-Seq; form: RNA; sample: in vitro; tested at: not given; baseline: input RNA pool; reading: higher = stronger binding; quantity: bound/input enrichment
Target: RING finger protein unkempt homolog, zinc fingers 1-6, GST-SBP tag (UNK, Homo sapiens, UniProt Q9C0B0, residues 30-357)
Chain of UniProt Q9C0B0 (30-357, looked up): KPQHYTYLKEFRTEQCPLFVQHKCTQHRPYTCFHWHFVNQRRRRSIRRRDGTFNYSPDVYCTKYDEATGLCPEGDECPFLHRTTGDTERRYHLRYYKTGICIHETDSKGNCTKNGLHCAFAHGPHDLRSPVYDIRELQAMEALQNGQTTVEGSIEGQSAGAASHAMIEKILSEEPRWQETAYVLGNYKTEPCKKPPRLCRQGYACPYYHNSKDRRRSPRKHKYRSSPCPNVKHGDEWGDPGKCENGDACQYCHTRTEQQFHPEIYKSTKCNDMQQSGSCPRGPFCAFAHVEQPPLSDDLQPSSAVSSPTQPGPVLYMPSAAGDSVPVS
Setting: RNA with constant flanks, human-mouse chimeric sites, ends assumed
Constant ends, left off below: GGGAGUUCUACAGUCCGACGAUC … CAACAGAGGAUUGAGCAUCA
GAGUCGAGCAAACUUGAAACAAUUCGUUAUCUUGCAGCCUCAGUGUUCACUUGCUUGGCGAUAGCAUAUUGGGAUUUUAGGUUCUGGAAGGAGAACUGACGAUGAUGCUGCCGCUGCUGC: 0.511 ratio
GGAAGUACAUUAAUGGAGAUUGAUGGUGACAAAGGCAAGCAGGGCGGGCCCACCUACUACAUAGACACCAAUGCCCUCCGCGUGCCCAGGGAGAACAUGGAGGCCAUCUCACCACUCAAG: 0.308 ratio
UCAACAGACAACAUCAAAUACCAGCCUAAGGGGGGUCAGGUACAAAUUGUUACCAAGAAAAUAGACCUAAGCCAUGUGACAUCCAAAUGUGGCUCUCUAAAGAACAUCCGCCACAGGCCA: 0.663 ratio
CCCUCCCCGGGCCACCCACCCCUCCCGGCUCCCCGCCGAGAUCCAGGUUUCUUCUUAUUUCAUAGCAAGCCAGAACAAUGUUCUACGCACAUUUUGUCCUCAGUAAACGAGGGCCUCUGG: 1.32 ratio
GAAACUAUUCCUAAAGAGGAGAAAGCUGAGAAGGAUGCUCGGAGACCAUCUCUUGAGAAACAUAGAAAAGAAAAGCCUUUUAAAACCGGGAGAGGCAGAAUUUCCACUCCUGAAAGAAAA: 0.277 ratio
UAUAUCACCAAUGUCCUACAAAAUCCUGACUUGGCUCUGAGAAUGGCUGUGCGGAACAACUUAGCCGGUGCUGAAGAACUCUUUGCCCGGAAAUUUAAUGCUCUUUUCGCCCAGGGAAAC: 0.402 ratio
GUACUGCAGCAGCAGGGAAAACUGCAGGAAGCUCUGAUGCACUAUAAGGAGGCUAUUCGAAUUAGUCCUACCUUUGCUGAUGCCUACUCUAAUAUGGGAAACACUCUAAAGGAGAUGCAG: 0.139 ratio
AUCAAAUACUUUGGGGAUAUUAUUAGCGUGGGACAGAGACUGUUGCAAGGAGCUCGGAUCUUAGGGAUUCCAGUUAUCAUAACGGAACAAUACCCUAAAGGACUUGGCAGCACCGUUCAA: 0.236 ratio

Study 2 — target: CCNB3, cyclin fold, Cln2 fusion (human); technique: yeast growth competition, sequencing; sample: yeast; setting: weak parent motif; baseline: not given; reading: higher = stronger binding; quantity: normalised enrichment score
Starting sequence: DBF4B docking peptide (human); LGYLYLLLTQSLW; partner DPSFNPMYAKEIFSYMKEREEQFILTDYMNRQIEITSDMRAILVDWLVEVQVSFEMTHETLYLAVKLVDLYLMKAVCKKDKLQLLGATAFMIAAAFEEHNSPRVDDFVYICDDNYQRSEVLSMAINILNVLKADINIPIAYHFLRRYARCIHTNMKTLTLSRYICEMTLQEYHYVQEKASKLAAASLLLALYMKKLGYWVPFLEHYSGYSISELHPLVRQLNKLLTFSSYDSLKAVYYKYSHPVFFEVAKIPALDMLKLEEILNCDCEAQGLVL
LAYLYLLLTQSLW [G2A]: 0.0677
LGYLYLALTQSLW [L7A]: -0.421
AGYLYLLLTQSLW [L1A]: 1.92
LGYLYLLLAQSLW [T9A]: 0.406
LGYLYLLATQSLW [L8A]: 0.778
LGYLYLLLTQALW [S11A]: 0.312

Study 3 — technique: aptamer microarray, sandwich; form: DNA with 2'F-ANA; sample: in vitro; tested at: 200 nM; together with: Cy3 exosite-II aptamer, 400 nM; reading: higher = stronger binding; quantity: mean fluorescence intensity; oligonucleotide: GGTTGGTGTGGTTGG
Target: Prothrombin, mature alpha-thrombin (F2, Homo sapiens, UniProt P00734)
Setting: whole 15-mer aptamer, many near background
2'F-ANA at 3 4 6 8 10 12 14 15: 160 a.u.
2'F-ANA at 1 2 5 7 9 11: 54.3 a.u.
2'F-ANA at 1 4 8 9 14: 49.4 a.u.
2'F-ANA at 1 4 14 15: 48.9 a.u.
2'F-ANA at 1 3 4 5 6 9 10 12 14 15: 53.5 a.u.
2'F-ANA at 1 2 5 6 7 8 9 10 11 12: 53.2 a.u.
2'F-ANA at 1 2 4 6 8 9 11 13 14 15: 50 a.u.
2'F-ANA at 2 3 7 9 13 14 15: 387 a.u.
2'F-ANA at 2 4 5 6 7 11 12 13 14: 78.9 a.u.

Other studies, line by line
PhoQ, residues 284 288 289 292 302 303 SLSVQF
fold induction (PhoP, residues 12 14 15 18 19 TQALL (Escherichia coli, UniProt P23836); Sort-seq, measured: YFP reporter; E. coli; PhoQ-PhoP variant library, together with: 10 µM Mg2+; baseline: high Mg2+ state, higher = stronger signaling): 12.9

Some of these lines once more (study 3):
2'F-ANA at 1 2 5 6 7 8 9 10 11 12: 53.2 a.u.
2'F-ANA at 1 2 4 6 8 9 11 13 14 15: 50 a.u.
